Measured values from different studies.
Numbered parts are unrelated; each lists some results of a single study. Substitutions count along the parent as printed.
Sequence of UniProt Q9XID4 (whole entry, looked up): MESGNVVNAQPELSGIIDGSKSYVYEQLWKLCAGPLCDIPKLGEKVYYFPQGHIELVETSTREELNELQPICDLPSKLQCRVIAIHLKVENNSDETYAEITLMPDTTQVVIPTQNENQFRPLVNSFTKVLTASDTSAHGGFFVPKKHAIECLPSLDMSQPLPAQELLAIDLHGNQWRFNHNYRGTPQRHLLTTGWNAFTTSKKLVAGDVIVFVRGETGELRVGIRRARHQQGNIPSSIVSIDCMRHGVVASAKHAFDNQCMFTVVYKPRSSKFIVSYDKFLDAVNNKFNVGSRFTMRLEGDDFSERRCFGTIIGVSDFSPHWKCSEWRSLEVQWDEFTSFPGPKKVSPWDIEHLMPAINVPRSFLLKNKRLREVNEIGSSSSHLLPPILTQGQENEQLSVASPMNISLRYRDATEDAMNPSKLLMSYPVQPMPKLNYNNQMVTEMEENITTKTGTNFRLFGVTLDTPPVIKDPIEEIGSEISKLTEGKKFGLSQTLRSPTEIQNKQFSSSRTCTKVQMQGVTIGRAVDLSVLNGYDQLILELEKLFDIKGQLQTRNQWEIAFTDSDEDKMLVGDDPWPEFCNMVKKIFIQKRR
Sequence of UniProt Q9FX25 (whole entry, looked up): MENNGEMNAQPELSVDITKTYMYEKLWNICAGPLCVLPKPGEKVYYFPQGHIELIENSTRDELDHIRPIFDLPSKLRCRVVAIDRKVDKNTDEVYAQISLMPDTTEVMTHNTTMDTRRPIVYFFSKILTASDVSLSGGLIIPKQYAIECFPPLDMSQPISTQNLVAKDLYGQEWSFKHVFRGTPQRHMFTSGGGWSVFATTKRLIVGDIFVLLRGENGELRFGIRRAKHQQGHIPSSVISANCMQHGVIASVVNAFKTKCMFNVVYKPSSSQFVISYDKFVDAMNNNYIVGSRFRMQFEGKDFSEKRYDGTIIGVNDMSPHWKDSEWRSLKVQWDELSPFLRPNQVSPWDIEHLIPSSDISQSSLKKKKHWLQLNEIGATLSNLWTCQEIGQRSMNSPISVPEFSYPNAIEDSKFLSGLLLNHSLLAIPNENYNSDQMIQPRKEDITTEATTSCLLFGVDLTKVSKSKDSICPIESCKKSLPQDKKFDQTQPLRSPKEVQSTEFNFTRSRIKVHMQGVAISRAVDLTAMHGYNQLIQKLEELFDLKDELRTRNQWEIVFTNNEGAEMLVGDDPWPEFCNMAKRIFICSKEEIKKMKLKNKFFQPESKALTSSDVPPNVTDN
Sequence of UniProt Q93WC4 (whole entry, looked up): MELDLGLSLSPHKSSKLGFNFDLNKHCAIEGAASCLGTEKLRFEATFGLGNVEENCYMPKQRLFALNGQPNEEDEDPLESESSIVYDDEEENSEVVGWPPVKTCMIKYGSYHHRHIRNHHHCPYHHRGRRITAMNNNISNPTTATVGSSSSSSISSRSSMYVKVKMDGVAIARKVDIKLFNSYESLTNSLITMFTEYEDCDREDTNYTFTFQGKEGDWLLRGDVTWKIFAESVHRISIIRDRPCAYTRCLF
Sequence of UniProt Q8H174 (whole entry, looked up): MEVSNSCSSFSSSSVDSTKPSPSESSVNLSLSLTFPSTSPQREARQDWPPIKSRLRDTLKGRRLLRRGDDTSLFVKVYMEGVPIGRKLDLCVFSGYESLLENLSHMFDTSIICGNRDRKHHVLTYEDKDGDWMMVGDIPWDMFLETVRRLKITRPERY
Sequence of UniProt Q9ZPY6 (whole entry, looked up): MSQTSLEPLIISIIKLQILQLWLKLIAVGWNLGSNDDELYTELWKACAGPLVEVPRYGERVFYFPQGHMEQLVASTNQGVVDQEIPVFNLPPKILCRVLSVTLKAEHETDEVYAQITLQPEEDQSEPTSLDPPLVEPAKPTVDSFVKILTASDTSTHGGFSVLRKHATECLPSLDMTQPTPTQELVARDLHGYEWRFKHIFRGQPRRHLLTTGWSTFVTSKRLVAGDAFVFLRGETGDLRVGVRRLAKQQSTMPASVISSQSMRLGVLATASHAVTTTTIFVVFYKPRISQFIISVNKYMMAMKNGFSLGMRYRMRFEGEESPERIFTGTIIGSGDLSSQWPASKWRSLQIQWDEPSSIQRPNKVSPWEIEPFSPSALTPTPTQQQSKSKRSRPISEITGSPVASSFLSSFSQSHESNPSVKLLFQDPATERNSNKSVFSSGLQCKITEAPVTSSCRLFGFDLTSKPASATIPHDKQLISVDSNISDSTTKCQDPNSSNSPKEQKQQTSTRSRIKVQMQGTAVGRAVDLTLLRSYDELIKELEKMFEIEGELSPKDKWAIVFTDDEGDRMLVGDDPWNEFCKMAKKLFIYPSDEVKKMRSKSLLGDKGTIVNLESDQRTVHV
Sequence of UniProt O24409 (whole entry, looked up): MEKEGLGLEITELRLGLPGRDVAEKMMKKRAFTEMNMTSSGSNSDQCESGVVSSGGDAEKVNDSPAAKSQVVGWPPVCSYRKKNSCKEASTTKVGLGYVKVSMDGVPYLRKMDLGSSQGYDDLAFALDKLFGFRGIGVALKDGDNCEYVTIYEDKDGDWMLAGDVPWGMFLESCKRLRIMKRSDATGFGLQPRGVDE
Sequence of UniProt Q9LQE8 (whole entry, looked up): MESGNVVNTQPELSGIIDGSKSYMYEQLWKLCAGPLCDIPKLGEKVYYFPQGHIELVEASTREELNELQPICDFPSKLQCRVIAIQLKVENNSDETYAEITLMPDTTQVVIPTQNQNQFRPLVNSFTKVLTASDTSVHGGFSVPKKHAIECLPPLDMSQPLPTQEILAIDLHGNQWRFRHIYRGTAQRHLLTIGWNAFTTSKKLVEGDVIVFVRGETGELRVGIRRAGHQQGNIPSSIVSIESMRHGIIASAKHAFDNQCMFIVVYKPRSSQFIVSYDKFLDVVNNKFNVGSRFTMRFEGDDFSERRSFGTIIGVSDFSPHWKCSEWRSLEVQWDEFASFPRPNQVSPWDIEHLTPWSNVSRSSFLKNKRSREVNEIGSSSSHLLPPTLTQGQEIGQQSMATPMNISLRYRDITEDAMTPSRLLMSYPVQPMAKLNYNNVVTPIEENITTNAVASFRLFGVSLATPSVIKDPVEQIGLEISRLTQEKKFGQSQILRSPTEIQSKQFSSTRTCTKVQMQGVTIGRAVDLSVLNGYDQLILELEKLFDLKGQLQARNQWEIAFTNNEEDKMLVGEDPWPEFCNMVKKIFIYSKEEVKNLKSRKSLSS
Sequence of UniProt Q94JM3 (whole entry, looked up): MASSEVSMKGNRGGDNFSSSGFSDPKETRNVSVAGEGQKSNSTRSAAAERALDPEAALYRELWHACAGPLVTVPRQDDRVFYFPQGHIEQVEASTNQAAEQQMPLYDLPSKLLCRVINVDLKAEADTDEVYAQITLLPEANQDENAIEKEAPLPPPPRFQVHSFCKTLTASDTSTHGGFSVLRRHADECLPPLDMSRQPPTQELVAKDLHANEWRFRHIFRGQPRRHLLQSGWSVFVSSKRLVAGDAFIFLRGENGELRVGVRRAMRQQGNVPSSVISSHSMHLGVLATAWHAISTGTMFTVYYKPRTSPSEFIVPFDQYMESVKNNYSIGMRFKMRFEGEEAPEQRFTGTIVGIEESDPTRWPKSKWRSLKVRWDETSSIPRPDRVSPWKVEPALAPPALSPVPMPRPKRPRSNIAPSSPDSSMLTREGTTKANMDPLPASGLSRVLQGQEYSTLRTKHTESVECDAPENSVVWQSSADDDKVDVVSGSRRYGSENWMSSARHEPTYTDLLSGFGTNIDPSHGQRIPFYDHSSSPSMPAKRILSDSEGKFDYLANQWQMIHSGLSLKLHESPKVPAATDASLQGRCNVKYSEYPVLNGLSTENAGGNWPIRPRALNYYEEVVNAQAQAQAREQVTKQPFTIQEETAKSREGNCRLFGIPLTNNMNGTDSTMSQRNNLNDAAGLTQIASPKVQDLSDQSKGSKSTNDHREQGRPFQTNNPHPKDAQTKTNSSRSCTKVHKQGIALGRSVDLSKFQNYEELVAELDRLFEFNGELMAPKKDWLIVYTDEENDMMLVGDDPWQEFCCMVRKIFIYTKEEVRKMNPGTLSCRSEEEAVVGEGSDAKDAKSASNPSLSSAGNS

Sample 1 — effect on: peptide-MHC binding; form: peptide; tested at: concentration not given
Target: HLA class I histocompatibility antigen, A alpha chain, allele A*25:01 (Homo sapiens, UniProt P04439)
Sequence | binding
KSKPRIHGY | inactive
ELRQLAQSL | inactive
VSANVKGNW | inactive
YITDYSNDI | inactive

Sample 2 — target: CCNB3, cyclin fold, Cln2 fusion (human); technique: yeast growth competition, sequencing; medium: yeast; notes: strong parent motif; relative to: not given; reading: higher = stronger binding
Starting sequence: viral docking peptide; YKVKRRLVFGADD; partner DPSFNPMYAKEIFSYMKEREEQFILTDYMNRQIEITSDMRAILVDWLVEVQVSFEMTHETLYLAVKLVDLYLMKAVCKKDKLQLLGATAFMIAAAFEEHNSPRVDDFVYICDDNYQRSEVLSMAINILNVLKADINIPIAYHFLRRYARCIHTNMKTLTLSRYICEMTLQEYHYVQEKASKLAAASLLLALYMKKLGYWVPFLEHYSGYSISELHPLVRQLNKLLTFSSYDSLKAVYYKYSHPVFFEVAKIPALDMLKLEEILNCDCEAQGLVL
Variant | normalised enrichment score
K4H | 0.143
R6P | 0.103
L7I | 0.329
K4C | 1.86
G10W | 0.778
V8G | 0.697
V8F | 1.95
V8Q | 1.58
V8A | 0.769
R5D | 0.0697
R6C | 0.313
F9M | 0.285
D12P | 1.82
G10C | 1.76
V8C | 1.46
R5L | 0.114
K2L | 2.24
R6S | 0.695
A11N | 2.39
V8K | 1.74
V8R | 0.747
A11V | 1.95
V8W | 0.874
L7R | -0.264
R5V | 0.905

Sample 3 — technique: protein-binding microarray; form: hairpin DNA; medium: in vitro; tested at: not given; relative to: not given; reading: higher = stronger binding
Target: Interferon regulatory factor 1, DNA-binding domain (IRF1, Homo sapiens, UniProt P10914, residues 1-114)
Notes: whole hairpin DNA, median over replicate spots
Construct (chain): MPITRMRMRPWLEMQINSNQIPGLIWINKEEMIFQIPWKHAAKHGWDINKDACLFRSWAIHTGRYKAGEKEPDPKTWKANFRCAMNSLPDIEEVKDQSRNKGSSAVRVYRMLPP
Sequence | median fluorescence
GAGGCCCGAAAGTGAAACGCCTCCTGGCGTTTCACTTTCGGGCCTCACAC (5mC at 35) | 1460 a.u.
GAGGCCCGCGAGCGAAACGCCTCCTGGCGTTTCGCTCGCGGGCCTCACAC (5mC at 9) | 558 a.u.
GAGGCCCCAAAGCGAAACGCCTCCTGGCGTTTCGCTTTGGGGCCTCACAC | 802 a.u.
GAGGCCCGAAAGTGACACGCCTCCTGGCGTGTCACTTTCGGGCCTCACAC | 558 a.u.
GAGGCCCGACAGTGAAACGCCTCCTGGCGTTTCACTGTCGGGCCTCACAC | 544 a.u.
GAGGCCCGAAAGTGAACGGCCTCCTGGCCGTTCACTTTCGGGCCTCACAC (5mC at 29) | 554 a.u.
GAGGCCCGAAAGCGAAACGCCTCCTGGCGTTTCGCTTTCGGGCCTCACAC (5mC at 7 13 33) | 847 a.u.
GAGGCCCCGAAGTGAAACGCCTCCTGGCGTTTCACTTCGGGGCCTCACAC (5mC at 38) | 582 a.u.

Sample 4 — technique: RNA Bind-n-Seq; form: RNA; medium: in vitro; tested at: 200 nM; notes: whole 134-nt RNA, ends assumed; added: 150 mM LiCl; relative to: input library; reading: higher = stronger binding; library: 7-deaza-guanosine replaces G
Target: Fragile X messenger ribonucleoprotein 1, C-terminal low-complexity region (Fmr1, Mus musculus, UniProt P35922)
Constant ends, left off below: GGGAGUUCUACAGUCCGACGAUC … UGGAAUUCUCGGGUGUCAAGG
Sequence | log2 enrichment
CUCAAGUCCUGUGCUACACAUCGUAUGUACCGAAUCGGGCCGGCCGGGCCGGGGAAAGUAUUAUGUUACGCCGUUCGGAUCUGCACUUCC | 0.527
AAGUCCUGUGCUACACAUCGUAUGUACCGAAUCGGGGAGGGGAGGGGUUUUUGGGGAAAGUAUUAUGUUACGCCGUUCGGAUCUGCACUU | 0.164
CACAGACAACACGCACCCACACAGACACAGAGGGAAGGGGUUGGGAUGGGGACAGGGUGCACAGCAGGGCGGGGUAAGACCCCAGCCCCU | 1.82
UGGCCCUGGUGGCAUGCGGGGAGGAAGAGGUGGGCUCAUGGAUCGUGGUGGUCCCGGUGGAAUGUUCAGAGGUGGCCGUGGUGGAGACAG | 1.03
UCGUUCCCCCCGCCACGAGAAGAAGAAGAAGGUCCGUAAAUACUGGGACGUGCCACCCCCAGGCUUUGAGCACAUCACCCCAAUGCAGUA | 2.4
GUCCUGUGCUACACAUCGUAUGUACCGAAUCGGAAAAAGGGGAAAAAGGGGAAAAAGGGAAAGUAUUAUGUUACGCCGUUCGGAUCUGCA | 0.514
UGGCCCUGGUGGCAUGCGGGCAGGAAGAGGUGGCCUCAUGGAUCGUGGUGGUCCCGGUGGAAUGUUCAGAGGUGGCCGUGGUGGAGACAG | 0.133
GCAGGAAGUAACAACAAAUGGAAAUGCUUCGGAUAGUGGCAGGGGUGGGGGUUGCUAAGGAAAGGGUGGGAUGGGAGUGGGUAAAGAGUU | 1.42

Sample 5 — technique: two-hybrid; reading: higher = firmer interaction
Molecule: IAA9 (Arabidopsis thaliana, UniProt Q38827)
Sequence of UniProt Q38827 (whole entry, looked up): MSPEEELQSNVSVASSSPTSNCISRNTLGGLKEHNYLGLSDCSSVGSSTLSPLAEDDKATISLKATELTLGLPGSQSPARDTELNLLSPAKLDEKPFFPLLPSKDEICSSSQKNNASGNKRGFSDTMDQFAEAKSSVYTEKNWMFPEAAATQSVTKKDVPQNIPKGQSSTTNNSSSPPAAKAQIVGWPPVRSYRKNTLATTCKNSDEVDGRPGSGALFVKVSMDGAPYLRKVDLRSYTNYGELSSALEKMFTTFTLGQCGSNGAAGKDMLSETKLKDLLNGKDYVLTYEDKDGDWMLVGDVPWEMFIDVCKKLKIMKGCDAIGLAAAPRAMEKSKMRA
partner | how to read | positive tests
IAA29 (Arabidopsis thaliana, UniProt Q93WC4) | relative to: out of 4 tests | 1
ARF12 500-593 (Arabidopsis thaliana, UniProt Q9XID4) | relative to: out of 2 tests | 0
IAA31 (Arabidopsis thaliana, UniProt Q8H174) | relative to: out of 2 tests | 0
ARF14 497-605 (Arabidopsis thaliana, UniProt Q9LQE8) | relative to: out of 2 tests | 0
ARF11 500-622 (Arabidopsis thaliana, UniProt Q9ZPY6) | relative to: out of 4 tests | 1
ARF2 727-859 (Arabidopsis thaliana, UniProt Q94JM3) | relative to: out of 4 tests | 1
IAA19 (Arabidopsis thaliana, UniProt O24409) | relative to: out of 4 tests | 4
ARF13 (Arabidopsis thaliana, UniProt Q9FX25) | relative to: out of 4 tests | 1

Single results of other studies
SMILES | cell line | test | system | conditions | how to read | endpoint | result
COc1ccccc1OCC(O)CO (stereo not drawn) | HEK-293T | pseudovirus infection, FDA-approved drug library counter-screen | VSV pseudotyped with VSV-G | 10 µM, 16 h | relative to: vehicle-treated | GFP-positive cells | 94.4%
